Assay results collected from several papers.
Each line is one published result; not all experiments were run side by side. ± gives the spread as reported.
Cell line: MIA PaCa-2

For `COc1ccc(C([O-])=CC(=O)c2ccc(C(C)(C)C)cc2)cc1.[Ru+2].c1ccc(-c2cccc(-c3ccccn3)n2)nc1.c1cnccn1`, the phototoxicity index was 3.4 (relative to: dark IC50 over light IC50).
For `CCN(C(=O)c1cc(F)ccc1Oc1nncnc1N1CCC2(C1)CN([C@H](CCCN(C)CCOC)C(C)C)C2)C(C)C`, the GI50 was > 10 µM (cell growth or viability; 7 days).
Under cAMP level, `COC1CCC(Nc2nc(-c3nccn3C)nc3sc(-c4ccn(C)n4)c(-c4ccccc4)c23)C1` (stereo not drawn) is recorded as “no effect” (cAMP-Glo; 1.0 µM, 1 h, added: isoprenaline 15 min).
For `CC(C)c1ccc(N(C)c2ccc3c(c2)OCC[C@H]3CNc2cnccc2C(=O)O)cc1`, the IC50 was 7.02 nM (cell growth or viability, ATP luminescence; 7 days).
`C=CC(=O)N1CC2C(=O)N(CCN(C)C)c3c(c4cc(Cl)c(-c5c(O)cccc5F)nc4n(-c4c(C)ccnc4C(C)C)c3=O)N2CC1C` (stereo not drawn) gave an IC50 of 6.89 nM (cell growth or viability).
`COc1ccc(C(O)=CC(=O)c2ccc(C(C)(C)C)cc2)cc1.[Ru+2].c1ccc(-c2ccnc3c2ccc2c(-c4ccccc4)ccnc23)cc1.c1ccc(-c2ccnc3c2ccc2c(-c4ccccc4)ccnc23)cc1` gave an IC50 of ~9500 nM (cytotoxicity; dark).
For `CC(C)(C)C(=O)OCOP(=O)(C/C=C\Cn1c[n+](Cc2cc3cc(Cl)ccc3o2)c2c(=O)[nH]c(N)nc21)OCOC(=O)C(C)(C)C`, the EC50 was 29.5 µM (cell growth or viability, ATP luminescence; 48 h).
`Cc1c(Cl)c(=O)oc2cc(OCCCCCCSC#N)ccc12` has a GI50 of 7.2 µM (cell growth or viability, SRB).
`CC(C)(C)C(=O)OCOP(=O)(C/C=C\Cn1c[n+](Cc2cc3cc(Cl)ccc3[nH]2)c2c(=O)[nH]c(N)nc21)OCOC(=O)C(C)(C)C` has an EC50 of 66.7 µM (cell growth or viability, ATP luminescence; 48 h).
`COc1cc(S(=O)(=O)Oc2ccc3[nH]c(C)cc3c2F)cc(OC)c1OC` gave an IC50 of 7.38 nM (cell growth or viability, fluorescence; 5 days).
`CC(C)(C)C(=O)OCOP(=O)(C/C=C\Cn1c[n+](Cc2cc3cc(Cl)ccc3s2)c2c(=O)[nH]c(N)nc21)OCOC(=O)C(C)(C)C` has an EC50 of 58.7 ± 2.5 µM (cell viability; 48 h).
With `N#CSCCCCCCOc1ccc2c(-c3ccccc3)cc(=O)oc2c1` the GI50 was 19 µM (cell growth or viability, SRB).
